Results from different studies.
A part holds a random share of what one study measured.

Block 1 — technique: protein binding microarray; molecule type: double-stranded DNA, one strand shown; medium: in vitro; tested at: not given; relative to: not given; direction: higher = stronger binding
Target: Histone acetyltransferase KAT6A, winged helix 2, GST fusion (KAT6A, Homo sapiens, UniProt Q92794, residues 85-181)
Notes: 8-mer, flanks averaged, mean of 2 arrays, mostly near background
Construct (chain): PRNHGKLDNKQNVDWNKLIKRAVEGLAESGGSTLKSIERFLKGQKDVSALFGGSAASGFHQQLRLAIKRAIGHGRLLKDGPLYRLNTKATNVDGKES
Strand	E-score
GCGAAGAC	-0.00796
CTGAGATA	-0.0809
AATGCACT	-0.0216
TGCTTTAA	0.0363
AAGCCGCT	0.0966
ACCGAACC	-0.00184
ACAACCAC	-0.0408
AGATGGAA	0.033
ATTCAGGA	-0.0276
CATTATGG	-0.08
ATGCGTTA	0.0428
GTAGAATA	-0.0511
GCGATGAA	0.133
CGTGGTGC	0.0409
AAGTAGTA	-0.122
CCATACCG	-0.0902

Block 2 — technique: protein-binding microarray; molecule type: double-stranded DNA, one strand shown; medium: in vitro; tested at: 250 nM; notes: 60-bp whole probe; with: salmon DNA 0.4 mg/ml; relative to: random background probes; direction: higher = stronger binding; shared flanks, not repeated: GCCTAGCAC … GTCTTGATTCGCTTGACGCTGCTG
Target: Interferon regulatory factor 7, full length, phosphomimetic (IRF7, Homo sapiens, UniProt Q92985, residues 1-503, S101K/S471D/S472D/S475D/S476D/S477D/S483D/S484D/S487D)
Sequence of UniProt Q92985 (whole entry, unmodified, looked up): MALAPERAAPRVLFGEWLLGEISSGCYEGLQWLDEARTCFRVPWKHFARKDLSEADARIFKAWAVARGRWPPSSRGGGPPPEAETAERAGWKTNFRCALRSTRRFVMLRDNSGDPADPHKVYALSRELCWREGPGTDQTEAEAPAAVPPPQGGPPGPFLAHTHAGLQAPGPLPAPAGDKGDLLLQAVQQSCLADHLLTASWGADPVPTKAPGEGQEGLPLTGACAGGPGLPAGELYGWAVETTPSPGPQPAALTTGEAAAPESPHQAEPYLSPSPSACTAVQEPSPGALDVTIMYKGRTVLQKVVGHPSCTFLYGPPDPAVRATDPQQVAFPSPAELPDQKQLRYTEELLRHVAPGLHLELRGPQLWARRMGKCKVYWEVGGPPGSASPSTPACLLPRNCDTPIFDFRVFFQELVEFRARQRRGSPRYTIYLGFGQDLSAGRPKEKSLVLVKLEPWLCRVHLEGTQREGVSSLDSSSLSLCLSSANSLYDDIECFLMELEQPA
Strand	log fluorescence [z-score]
GACGGTATCGGGTTCCGGGACGTGCTA	1.77
CTGGTTTTTACTTTCTGAATGTGCTAG	1.98
GTAGGACTGGGTTTCGGTTAGTGCTAG	6.18
TTAGGTTTCGACTATCGGTTGGTGCTA	5.01
TGAGGTTTCGGTTCCGGTTAGTGCTAG	12.1
TTAGGACTGGGTTTCGATTAGTGCTAG	7.56
GACGGTTTCGACTATCGGGGCGTGCTA	5.16
GACGGTATCGACAATGGGGACGTGCTA	-0.332
TTAGGACTTCTTTTCCTTTAGTGCTAG	1.15
AAACTTACCTCACTCGTTAAGTGCTAG	0.225
GACGGTCTCCTTTTCCTGACGTGCTAG	1.11
GACGGTATCGGGCATCGGGACGTGCTA	-0.645
TCAGTGCTCATGCTTCTTACTGTGCTA	-0.579
GACGAACTGAGTGTCGAGACGTGCTAG	-0.372
GACGGACTTGGTTTCGGGACGTGCTAG	3.75
GACGAGTTCAGTCTCGAGACGTGCTAG	0.582
TTAGATTTCGGACTGGGTTAGTGCTAG	0.412
GCTTCTATGTAGTTGATGAAGTGCTAG	1.06
TTAAGACTGGGGTTTCGGTTAGTGCTA	5.45
TTAGGTCTCGGGATCGGTTAGTGCTAG	1.62
TTTAAAGAACCCACTATCTTGTGCTAG	0.131
TCAATTGTGCAATCTTAAACTGTGCTA	0.149
GACGATTTCGGGTATCGTGACGTGCTA	0.752
GACGGTCTCGGACTGAGGACGTGCTAG	-0.089
TCACCATTGGTCTTCACACTGTGCTAG	-0.152

Block 3 — technique: RNA Bind-n-Seq; molecule type: RNA; medium: in vitro; tested at: not given; relative to: input RNA pool; direction: higher = stronger binding
Target: RING finger protein unkempt homolog, zinc fingers 1-6, GST-SBP tag (UNK, Homo sapiens, UniProt Q9C0B0, residues 30-357)
Notes: RNA with constant flanks, human-mouse chimeric sites, ends assumed
Shared flanks, not repeated: GGGAGUUCUACAGUCCGACGAUC … CAACAGAGGAUUGAGCAUCA
Target sequence (chain): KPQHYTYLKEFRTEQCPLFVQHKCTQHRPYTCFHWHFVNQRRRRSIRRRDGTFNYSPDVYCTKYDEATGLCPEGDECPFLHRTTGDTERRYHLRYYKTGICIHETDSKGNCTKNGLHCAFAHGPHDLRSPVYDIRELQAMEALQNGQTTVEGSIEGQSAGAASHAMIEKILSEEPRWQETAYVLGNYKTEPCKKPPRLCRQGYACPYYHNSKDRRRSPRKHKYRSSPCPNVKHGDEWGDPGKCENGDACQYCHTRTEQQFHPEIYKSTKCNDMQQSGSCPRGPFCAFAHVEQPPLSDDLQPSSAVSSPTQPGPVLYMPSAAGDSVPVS
Strand	bound/input enrichment [ratio]
GAGUCGAUUAUGGAAACAACAAUUCGUUAUCUUGCAGCCUCAGUGUUUUUACUUGCCGCGAUAGCAUUGGGGUUUUAUAGGUUCUGGAAGGAGAACUGACGAUGAUGCUGCCGCUGCUGC	0.247
AAAGAAAAUGGAGAUGUAAAGAUUUUACUGAAAAGUGGGAAGGAGAAACCAAAAACAAAUAUAGAAGACUUACAAAUUAAAAAGGUAAAGAAGAAAAAGAAAAAGAAACACAAAGAGAAU	16
GCAGGAUCUUCUAAAUACCAGUGGGACAUUAUGAAAUCCCUUGGGCUCUCUGAUGACGACAUAGUGAAGUUUUCUGAAGCAGAGCACUGGCUUGAUUAUUUCCCACCACUGGCUAUUCAG	0.096
AUGGAACAUUUCGAUGCGUCACUCAGUACCUAUUUCAAGGCAUUGCUGGGCCCCCGAGAUACUAGAGUCAAAGGAUGGUUCCUCCUGGACAAUUACAUCCCUACGUUUGUCUGUUCUGUU	0.155
CACAGAGCAGCACCUACCCCCUCCUCCUUUCCACACCUGCAAACUCUUUUGCCUGGGCUGAAUAUUUAGUGUAAUUACAUCUCAGCUUUUGAGGGCUCUGUGGCAAAUUCCCGGAUUAAA	0.577
AAAGUGAUGACUAUGUUUGUCCAACGACAGGUAUUUUCGGAGAGCAAAGAUGAGAUUGCGUUAGUCCUGUUUGGUACAGAUGGCACUGAUAAUGCCCUUGCUGGCAAGGACCAGUAUCAG	0.126
GUAAUGGACGUCAACACUGCUCUACAAGAGGUUCUGAAGACCGCCCUCAUCCACGAUGGCCUAGCACGUGGCAUACGCGAAGCUGCCAAAGCCUUAGACAAGCGCCAAGCCCAUCUGUGU	0.27
AGAUUCCCCCUCCUGAGACCUCCUCCGAAGUUGGAGUCUCUUACAGAUGGUUCAUCUCCUGUUAGCGUUUUAGUUUGGACCACCCAGCCUUGGACAAUUCCCGCCAACCAGGCAAUUUGC	3.38
UUUGUAUUUAUGCUAAGCACACGUGCUGGUGGUCUGGGCAUCAAUCUUGCGACUGCUGAUGUAGUCAUUUUAUAUGACUCAGAUUGGAAUCCCCAAGUUGAUCUUCAGGCUAUGGACCGU	0.145
UAAGUCCUGUGCCAGCACUUCGCUCAUAAAGUUUUAAAUUCUGGACCAAUAGUGUUUGUUUCCUGAUUAUUGUAUCCAAUACUUUAUGUACUAUGUGACUCACUCUUACUGAUAAUAAAA	0.524
GCUCUUGGGAAUGUAAUCAGCGCCUUGGGGGACAAGAGCAAGAGGGCCACCCAUGUCCCCUAUAGAGACUCUAAGCUGACAAGACUCUUGCAGGAUUCCCUUGGGGGUAACAGCCAAACC	0.186

Block 4 — technique: RNA Bind-n-Seq; molecule type: RNA; medium: in vitro; tested at: 200 nM; notes: whole 134-nt RNA, ends assumed; with: 150 mM KCl; relative to: input library; direction: higher = stronger binding
Target: Fragile X messenger ribonucleoprotein 1, C-terminal low-complexity region (Fmr1, Mus musculus, UniProt P35922)
Shared flanks, not repeated: GGGAGUUCUACAGUCCGACGAUC … UGGAAUUCUCGGGUGUCAAGG
Strand	log2 enrichment
GUCCUGUGCUACACAUCGUAUGUACCGAAUCAAAUUUAAACCCCCAAAUUUUUUUAAAAAAGUAUUAUGUUACGCCGUUCGGAUCUGCAC	0.33
CCUGUGCUACACAUCGUAUGUACCGAAUCAAACCCCCCCAAACCCCCCCAAAUUUUUAAAAAAGUAUUAUGUUACGCCGUUCGGAUCUGC	-0.09
CACAGAAAACACGCACCCACACAGACACAGAGGGAAGGGGUUGGGAUGGGGACAGGGUGCACAGCAGGGCGGGGUAGGACCCCAGCCCCU	1.21
UACCAAUUGGCCUUUAUUGACUGUAUCCAAAGGAUUUUUUGAAGGCACCAUUGCCAGCAAAGGUAAGUACCUAUUUCUCCCAUAGCACUU	-0.602
GUCCUGUGCUACACAUCGUAUGUACCGAAUCGGAAAAAAAGGAAAAAGGUUUUUUUGGAAAGUAUUAUGUUACGCCGUUCGGAUCUGCAC	-1.17
CUGUGCUACACAUCGUAUGUACCGAAUCGGUUUUUUUGGGGUUUUUUUGGGGUUUUUUUGGGAAAGUAUUAUGUUACGCCGUUCGGAUCU	-0.226
ACCAUGCAGGUGGGCAUCUUUGGGAAGUGGGGCACGGGGGGGAUAGGGAGGGGGGUAACACUUUGGGAACAGGUGGUCCCAGGUCGUUUC	0.747
GCAGGAAGUAAAAACAAAAAGAAAUGCUUCGGAUAGUGGCAGGGGUGGGGGUUGCUAAGGAAAGGGUGGGAUGGGAGUGGGUAAAGAGUU	0.559
UAACUUUAGAGGAGGAUCUGAUGGAUAUGGCAGUGGACGUGGAUUUGGGGAUGGCUAUAAUGGGUGUGGAGGAGGACCUGGAGGUGGCAA	0.26
UAACUUUAGAGGAGGAUCUGAUGGAUAUGGCAGUGGACGUGGAUUUGGGGAUGGCUAUAAUGGGUAUUGAGGAGGACCUGGAGGUGGCAA	0.269
UCCUCAAGUCCUGUGCUACACAUCGUAUGUACCGAAUCGGAAAGGAGGUGGAAAGUAUUAUGUUACGCCGUUCGGAUCUGCACUUCCAGC	-0.496
UCCUCAAGUCCUGUGCUACACAUCGUAUGUACCGAAUCGGAGGAAAGGAGGAAAGUAUUAUGUUACGCCGUUCGGAUCUGCACUUCCAGC	-0.563
UAACUUUAGAGGAGGAUCUGAUGGAUAUGGCAGUGGACGUGGAUUUGGGGAUGGCUAUAAUGGGUAUGGAGGAGGACCUAGAGGUGGCAA	0.129
AGUCCUGUGCUACACAUCGUAUGUACCGAAUCGGUUUUUGGGUUUUUGGGUUUUUGGAAAGUAUUAUGUUACGCCGUUCGGAUCUGCACU	-0.473

Repeated from above (block 4):
Strand	log2 enrichment
CCUGUGCUACACAUCGUAUGUACCGAAUCAAACCCCCCCAAACCCCCCCAAAUUUUUAAAAAAGUAUUAUGUUACGCCGUUCGGAUCUGC	-0.09
CACAGAAAACACGCACCCACACAGACACAGAGGGAAGGGGUUGGGAUGGGGACAGGGUGCACAGCAGGGCGGGGUAGGACCCCAGCCCCU	1.21
UACCAAUUGGCCUUUAUUGACUGUAUCCAAAGGAUUUUUUGAAGGCACCAUUGCCAGCAAAGGUAAGUACCUAUUUCUCCCAUAGCACUU	-0.602
GUCCUGUGCUACACAUCGUAUGUACCGAAUCGGAAAAAAAGGAAAAAGGUUUUUUUGGAAAGUAUUAUGUUACGCCGUUCGGAUCUGCAC	-1.17
CUGUGCUACACAUCGUAUGUACCGAAUCGGUUUUUUUGGGGUUUUUUUGGGGUUUUUUUGGGAAAGUAUUAUGUUACGCCGUUCGGAUCU	-0.226
ACCAUGCAGGUGGGCAUCUUUGGGAAGUGGGGCACGGGGGGGAUAGGGAGGGGGGUAACACUUUGGGAACAGGUGGUCCCAGGUCGUUUC	0.747
GCAGGAAGUAAAAACAAAAAGAAAUGCUUCGGAUAGUGGCAGGGGUGGGGGUUGCUAAGGAAAGGGUGGGAUGGGAGUGGGUAAAGAGUU	0.559
